Published values pooled from the literature.
Each numbered part is a random draw from the data of one study; scales do not carry over between parts.

Sample 1
Target: Interferon regulatory factor 5, full length, phosphomimetic (IRF5, Homo sapiens, UniProt Q13568-2, residues 1-514, K96S/S451D/S453D/S456D/S462D)
Technique: protein-binding microarray
Molecule type: double-stranded DNA, one strand shown
Matrix: in vitro
Tested at: 250 nM
Notes: 60-bp whole probe
Added: salmon DNA 0.4 mg/ml
Relative to: random background probes
Direction: higher = stronger binding
All sequences stand within: GCCTAGCAC … GTCTTGATTCGCTTGACGCTGCTG
`TTAGATATCGGGTATCGAATAGTGCTA` gave a log fluorescence of 3.92 z-score.
The log fluorescence of `GACGAACTGCGTCTCGAGACGTGCTAG` is reported as -0.541 z-score.
For `TTAGATATGGGGACTGGATTAGTGCTA`, the log fluorescence was -0.144 z-score.
With `TCATGTCTGTGTTTCCTACTGTGCTAG` the log fluorescence was 0.26 z-score.
The log fluorescence of `TTAGGTTTCGGTTTCGGTTCGTGCTAG` is reported as 11.8 z-score.
`GACGCTTTCCTTTTCCTGACGTGCTAG` has a log fluorescence of 1.38 z-score.
`GACGGCCTCCTACTGCTGACGTGCTAG` has a log fluorescence of -0.636 z-score.
With `TCAAAATTAGTGTTTGCCACTGTGCTA` the log fluorescence was 0.216 z-score.

Sample 2
Target: UBE2D3 UBC core domain (UniProt P61077)
Technique: yeast two-hybrid
Matrix: yeast
Notes: mostly zero background
Relative to: not given
Direction: higher = stronger interaction
B1: RNF111 RING domain (UniProt Q6ZNA4); chain EGTEEDTEEKCTICLSILEEGEDVRRLPCMHLFHQVCVDQWLITNKKCPICRVDIEAQLPSE
B2: TRAF5 RING domain (UniProt O00463); chain FVERLEERYKCAFCHSVLHNPHQTGCGHRFCQHCILSLRELNTVPICPVDKEVIKSQEVFK
B3: TRIM40 RING domain (UniProt Q6P9F5); chain LQKDNQEEGVCPICQESLKEAVSTNCGHLFCRVCLTQHVEKASASGVFCCPLCRKPCSEEVLG
B4: RNF38 RING domain (UniProt Q9H0F5); chain PNNHQSEQTLCVVCMCDFESRQLLRVLPCNHEFHAKCVDKWLKANRTCPICRADASEVHRDS
B5: TRIML1 RING domain (UniProt Q8N9V2); chain LMENLREELTCFICLDYFSSPVTTECGHSFCLVCLLRSWEEHNTPLSCPECWRTLEGPHFQS
B6: TRIM5 RING domain (UniProt Q9C035); chain LREVKLSPEGQKVDHCARHGEKLLLFCQEDGKVICWLCERSQEHRGHHTFLTEEVAREYQVKL
B7: RNF208 RING domain (UniProt Q9H0X6); chain SSAAAGEPLECPTCGHSYNVTQRRPRVLSCLHSVCEQCLQILYESCPKYKFISCPTCRRETVLFTDYG
Residues (chain): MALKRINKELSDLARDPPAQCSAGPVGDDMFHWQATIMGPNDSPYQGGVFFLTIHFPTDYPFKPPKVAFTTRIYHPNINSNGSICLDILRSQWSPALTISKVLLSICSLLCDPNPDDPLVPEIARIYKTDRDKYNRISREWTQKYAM
For `B1 (RNF111 RING domain)`, “lacZ reporter activity” read 14700.
Under “lacZ reporter activity”, `B2 (TRAF5 RING domain)` is recorded as 0.
`B3 (TRIM40 RING domain)`: “lacZ reporter activity” 0.
`B4 (RNF38 RING domain)` — result for “lacZ reporter activity”: 0.
`DHGAVGQEMCCPICCSEYVKGEVATELPCHHYFHKPCVSIWLQKSGTCPVCRCMFPPPL (PJA1 RING domain (UniProt Q8NG27))` — result for “lacZ reporter activity”: 0.
`B5 (TRIML1 RING domain)` — result for “lacZ reporter activity”: 0.
`B6 (TRIM5 RING domain)` — result for “lacZ reporter activity”: 0.
For `B7 (RNF208 RING domain)`, “lacZ reporter activity” read 0.
Under “lacZ reporter activity”, `GAAPGPEAAECLVCSELALLVLFSPCQHRTVCEECARRMKKCIRCQVVVSKKLRPD (MIB2 RING domain (UniProt Q96AX9))` is recorded as 0.
`ASLPTSEEDLCPICYAHPISAVFQPCGHKSCKACINQHLMNNKDCFFCKTTIVSVEDWE (RNF123 RING domain (UniProt Q5XPI4))` — result for “lacZ reporter activity”: 0.
For `PAELEVQASECVVCLEREAQMIFLNCGHVCCCQQCCQPLRTCPLCRQDIAQRLRIY (LRSAM1 RING domain (UniProt Q6UWE0))`, “lacZ reporter activity” read 0.

Sample 3
Target: HLA class I histocompatibility antigen, A alpha chain, allele A*80:01 (Homo sapiens, UniProt P04439)
Effect on: peptide-MHC binding
Molecule type: peptide
Tested at: concentration not given
Under binding, `MAYGFFNNI` is recorded as “inactive”.
For `LTAPCDIYV`, binding read “inactive”.
Under binding, `GSEEIKSLF` is recorded as “inactive”.
`QHAWPLPPL`: binding “inactive”.
For `LVTGAGSGF`, binding read “inactive”.

Single results of other studies
Under cross-linked residues, `FLOT1 (Homo sapiens, UniProt O75955)` is recorded as “K302 to K321” (FLOT2 (Homo sapiens, UniProt Q14254); cross-linking MS; cells; added: BSPNO).

Some of these lines once more (sample 2):
For `B1 (RNF111 RING domain)`, “lacZ reporter activity” read 14700.
Under “lacZ reporter activity”, `B2 (TRAF5 RING domain)` is recorded as 0.
